Measurements gathered from unrelated publications.
Compare with care: the assays were run in different laboratories. “And” joins repeats or separate records; there may be more than shown.
CHEK2: Serine/threonine-protein kinase Chk2 (CHEK2, Homo sapiens, UniProt O96017)
CHEK2 I157T: Serine/threonine-protein kinase Chk2 (CHEK2, Homo sapiens, UniProt O96017, I157T)

Cc1cccc(-c2ccc3nc(NC(=O)C4CCCCC4)nn3c2)c1
remaining activity (CHEK2; enzyme activity, Dundee kinase panel; 10 µM): 95%

C=CC(=O)N1Cc2nc(-c3cc(-c4cc(Cl)cnc4Cl)c(F)cc3F)n(-c3ccncn3)c2C1
inhibition (CHEK2; cell-free assay, inhibitor; 1 µM): 9.3%

CN1CC[C@@H](COc2cnc(C#N)cc2-c2ccn3nc(NC(=O)C4CC4)cc3c2)C1
inhibition (CHEK2; enzyme activity, inhibitor; 1 µM): 19%

CN1CCN(Cc2ccc(-c3ccc(CO[C@H]4CCC[C@@H]4NC(=O)c4cc(-c5cnn(C)c5)cnc4N)cc3)cc2)CC1
inhibition (CHEK2; enzyme activity, inhibitor; 0.1 µM): 55%

Cc1nc2c(F)cc(-c3nc(Nc4ccc(CNC(=O)CCCCCCC(=O)NO)cc4)ncc3F)cc2n1C(C)C
inhibition (CHEK2 I157T; enzyme activity, inhibitor; 1 µM): 60%

Cc1cccc(-c2ccc3nc(NC(=O)C4CCCO4)nn3c2)c1 (stereo not drawn)
remaining activity (CHEK2; enzyme activity, Dundee kinase panel; 10 µM): 99%

CNC(=O)C[C@H](Cc1ccc(C#N)cc1)NC(=O)c1cc(-c2ccc(CN[C@H](C)c3ccc(C)cc3)o2)ccc1Cl
activity vs control (CHEK2; enzyme activity, inhibitor; 1 µM): 110%

c1ccc2c(Nc3cc(C4CCC4)[nH]n3)nc(Nc3ccc4nc[nH]c4c3)nc2c1
remaining activity (CHEK2; enzyme activity, inhibitor; 0.25 µM): 8%

Nc1ncc2c(n1)-c1c([nH]c3ccc(C4=CCOCC4)cc13)CCC2
remaining binding (CHEK2; binding, competition with immobilised ligand; 1 µM): 75%

O=C=[N][Ru-4]123([n]4c5ccc(O)cc5c5c6c(c7cc(F)c[n+]1c7c54)C(=O)NC6=O)[S+]1CC[S+]2CC[S+]3CC1 (stereo not drawn)
remaining activity (CHEK2 I157T; enzyme activity; 100 nM, human enzyme, added: 10 µM ATP; relative to: untreated): 87%

CCn1cc(C(=O)O)c(=O)c2c(N)c(F)c(NC3CCCCC3)cc21
inhibition (CHEK2; kinase activity; 0.1 µM, added: ATP at Km): 4.9%

CCN1CCN(Cc2ccc(C(=O)Nc3ccc(C)c(NCc4cnc5[nH]ccc5c4OC)c3)cc2C(F)(F)F)CC1
remaining binding (CHEK2; binding, competition with immobilised ligand; 1 µM): 100%

Cc1cccc(O[C@H]2CCC[C@@H](C(C)CNCc3ccncc3)C2)c1 (relative stereo)
inhibition (CHEK2; enzyme activity, inhibitor; 10 µM): 3%

CNC(=O)C1CCN(c2cc(C)c(F)cc2NC(=O)c2ccc(-c3cc(O)ccc3C)c(C)c2)CC1
remaining binding (CHEK2; binding, competition with immobilised ligand; 1 µM): 98%

COc1c(Cl)cccc1Nc1c(-c2ccncc2C#C[C@@]2(C)CCCN2C(=O)/C=C/CN(C)C)[nH]c2c1C(=O)NCC2
remaining binding (CHEK2; binding, competition with immobilised ligand; 3 µM): 92%

Nc1ncc(-c2cc(-c3cnn(CC(F)(F)F)c3)ncc2F)nc1C(=O)NC1CNCC(F)C1 (stereo not drawn)
remaining activity (CHEK2; enzyme activity; 1 µM; relative to: DMSO control): 2.83%

NC(=O)C[C@H]1CCc2sc3ncnc(O[C@H]4CC[C@H](N5CCOCC5)CC4)c3c21
inhibition (CHEK2; enzyme activity, inhibitor; 10 µM): 3%

CNC1C[S+]2CC[S+]3CC[S+](C1)[Ru-4]321([N]=C=S)[n]2c3ccc(OC)cc3c3c4c(c5cc(F)c[n+]1c5c32)C(=O)NC4=O (stereo not drawn)
remaining binding (CHEK2; KinomeScan; 0.1 µM; relative to: untreated): 91%

O=c1c(-c2ccc(Cl)c(CN3CCOCC3)c2)coc2cc(O)ccc12
remaining activity (CHEK2; enzyme activity, inhibitor; 1 µM): 114%

COCC12C(=O)NC3C4(C(OC)CC1O)C1CC5(O)C(OC)C(O)C(OC(C)=O)(C1C5OC(=O)c1ccccc1)C3(O)C(OC)C24 (stereo not drawn)
remaining activity (CHEK2; kinase activity, inhibitor, ProQinase kinase profiling; 25 µM; relative to: control): 101% and 95%

C=CC(=O)Nc1cccc(-c2cnc3[nH]cc(C(=O)NC(C)(C)C)c3n2)c1
inhibition (CHEK2; enzyme activity, inhibitor; 0.1 µM): 14%

Repeated from above:
Nc1ncc2c(n1)-c1c([nH]c3ccc(C4=CCOCC4)cc13)CCC2
remaining binding (CHEK2; binding, competition with immobilised ligand; 1 µM): 75%
